Measurements gathered from unrelated publications.
Lines come from different studies, so protocols differ. Numbers after ± are the reported error.
Organism: Plasmodium falciparum

| Structure (SMILES) | assay | test system | conditions | IC50 |
| --- | --- | --- | --- | --- |
| Cc1ccc(S(=O)(=O)n2cc3c4c2C(=O)C(NCCc2ccc(O)cc2)=CC4=NCC3)cc1 | parasite growth, SYBR Green | 3D7 | blood stage | 233 nM |
| COCCN(C)CC(=O)NC(Cc1ccc(-c2ccccc2)cc1)B(O)O (stereo not shown) | [3H]-hypoxanthine incorporation | Dd2, DSM265-resistant |  | 143 ± 41 nM |
| CC(=O)c1c(O)c(C)c(O)c2c1OC1=CC(=O)C(=C(C)NNc3ccnc4cc(Cl)ccc34)C(=O)C12C (stereo not shown) | parasite growth, [3H]hypoxanthine incorporation | K1 | erythrocytic stages | 2120 nM |
| COc1ccc2c(c1)C1CC(C)(N2)c2c(C)nc3ccc(OC)cc3c21 (stereo not shown) | parasite growth, inhibitor, SYBR Green I | Cam3.1 R539T (MRA-1240) |  | 6.7 nM |
| CC(C)CCOC1C(C)C2C(C=CC3C(C)C=CC=CC(C)OC(=O)C(C)C(=O)C(Cl)(Cl)C(=O)C32)CC1(C)O (stereo not shown) | parasite growth, ELISA | DD2 | drug-resistant strain, blood stage | > 11000 nM |
| O[Si](CCCN1CCCCC1)(c1ccc(F)cc1)C1CCCCC1 (stereo not shown) | parasite growth, SYBR Green | HB3 | blood stage | 7 nM |
| CCN(CC)CCCC(C)Nc1ccnc2cc(Cl)ccc12 (stereo not shown) | parasite growth | Cam WT, artemisinin-sensitive | 72 h | 28.2 ± 1.7 nM |
| COc1cc(O)c(-c2cc(-c3cc(-c4c(O)cc5c(c4OC)[C@H](C)N[C@H](C)C5)c4cc(C)cc(OC)c4c3O)c(O)c3c(OC)cc(C)cc23)c2c1[C@H](C)N[C@H](C)C2 | parasite growth, SYBR Green | W2 | drug-resistant strain, blood stage | 134 nM |
| C[C@H]1[C@@H](OCc2cn(-c3cc4ccc(O)cc4oc3=O)nn2)O[C@@H]2O[C@@]3(C)CC[C@H]4[C@H](C)CC[C@@H]1[C@@]24OO3 |  | 3D7, supernatant of treated uninfected erythrocytes | 72 h, 500 nM preincubated 0.16 h | 1.2 ± 0.1 nM |
| C[OH+][Cu-2]12[O]C(c3cn(-c4ccccc4)nc3-c3ccc(Br)cc3)=N[N+]1=C(C)c1c(cc(C)oc1=O)[O]2 (stereo not shown) | SYBR Green I fluorescence | 3D7 | 72 h | 15400 nM |
| O=C1C(=O)c2[nH]cc3c2C(=C1I)NCC3 | parasite growth, SYBR Green | 3D7 | blood stage | 8150 nM |
| C[C@H]1[C@@H](OCc2nnn(-c3cc4ccc(O)cc4oc3=O)c2CO[C@H]2O[C@@H]3O[C@@]4(C)CC[C@H]5[C@H](C)CC[C@@H]([C@H]2C)[C@@]35OO4)O[C@@H]2O[C@@]3(C)CC[C@H]4[C@H](C)CC[C@@H]1[C@@]24OO3 |  | 3D7, supernatant of treated uninfected erythrocytes | 72 h, 500 nM preincubated 0.16 h | 1.1 ± 0.4 nM |
| Cc1cc(N2CCC(C#N)(C3(C)CC3)C2=O)cc(C(=O)NCc2cc(F)cc(-c3cnn(C)c3)c2)n1 (racemic) | parasite growth | compound-resistant Dd2-B2 bulk 1_Bulk_10e5_C4 |  | 78 nM |
| C[C@@H]1CC[C@H]2[C@@H](C)C(=O)O[C@@H]3O[C@@]4(C)CC[C@@H]1[C@]32OO4 | parasite growth | NF54 | 72 h, blood stage | 11.1 nM |
| CCCCOC1C(C)C2C(C=CC3C(C)C=CC=CC(C)OC(=O)C(C)C(=O)C(Cl)(Cl)C(=O)C32)CC1(C)O (stereo not shown) | parasite growth, ELISA | DD2 | drug-resistant strain, blood stage | > 11000 nM |
| COC1=CC2=NCCc3c[nH]c(c32)C1=O | parasite growth, SYBR Green | 3D7 | blood stage | 911 nM |
| C[OH+][Cu-2]12[O]C(c3cn(-c4ccccc4)nc3-c3ccc(Cl)cc3)=N[N+]1=C(C)c1c(cc(C)oc1=O)[O]2 (stereo not shown) | SYBR Green I fluorescence | 3D7 | 72 h | 15700 nM |

| Structure (SMILES) | assay | test system | conditions | IC50 |
| --- | --- | --- | --- | --- |
| C[C@H]1[C@H](OC(=O)CCC(=O)OCc2cn(-c3cc4ccc(O)cc4oc3=O)nn2)O[C@@H]2O[C@@]3(C)CC[C@H]4[C@H](C)CC[C@@H]1[C@@]24OO3 |  | 3D7, supernatant of treated uninfected erythrocytes | 72 h, 500 nM preincubated 0.16 h | 66 ± 11 nM |
| CC(F)(F)CCCNC[C@H](O)c1cc(Cl)cc2c1-c1ccc(Cl)cc1C2 | parasite growth, SYBR Green | W2 | 48 h, drug-resistant strain, blood stage | 2 nM |
| O=C1C(NCCc2cc(Br)c(O)c(Br)c2)=CC2=NCCc3c[nH]c1c32 | parasite growth, SYBR Green | 3D7 | blood stage | 1080 nM |
| C[C@@H]1C(=O)O[C@@H](C)/C=C/C=C\[C@@H](C)[C@@H]2C=C[C@@H]3C[C@@]4(C)O[C@H]4[C@@H](C)[C@H]3[C@@H]2C(=O)C(Cl)(Cl)C1=O | parasite growth, ELISA | DD2 | drug-resistant strain, blood stage | 154 nM |
| C[C@H]1[C@H](OC(=O)CCC(=O)OCc2nnn(-c3cc4ccc(O)cc4oc3=O)c2COC(=O)CCC(=O)O[C@@H]2O[C@@H]3O[C@@]4(C)CC[C@H]5[C@H](C)CC[C@@H]([C@H]2C)[C@@]35OO4)O[C@@H]2O[C@@]3(C)CC[C@H]4[C@H](C)CC[C@@H]1[C@@]24OO3 | parasite growth | 3D7 | 24 h, blood stage | 8.9 nM |
| COc1cccc2c(-c3ccc(O)c4c3CCNC4)ccc(O)c12 | parasite growth, SYBR Green | W2 | drug-resistant strain, blood stage | 800 nM |
| CC(=O)c1c(O)c(C)c(O)c2c1OC1=CC(=O)C(=C(C)NCCNc3ccnc4cc(Cl)ccc34)C(=O)C12C (stereo not shown) | parasite growth, [3H]hypoxanthine incorporation | K1 | erythrocytic stages | 305 nM |
| COc1ccc2cc1Oc1cc3c(cc1OC)CCN(C)C3Cc1ccc(cc1)Oc1c(O)c(OC)cc3c1C(C2)N(C)CC3 (stereo not shown) | parasite growth, stage-specific treatment |  | 12 h, early to late schizont stage | 1090 ± 500 nM |
| CC1=N[C@H](C)Cc2c(-c3ccc(C)cc3)ccc(O)c21 | parasite growth, SYBR Green | W2 | drug-resistant strain, blood stage | 960 nM |
| COCCN(C)C(C)C(=O)NC(Cc1ccc(-c2ccccc2)cc1)B(O)O (stereo not shown) |  | V1/S β6 A117V K13 WT, WLL-resistant | 72 h | 3420 ± 1200 nM |
| CC1C=CC=CC(C)C2C=CC3CC(C)(O)C(F)C(C)C3C2C(=O)C(Cl)(Cl)C(=O)C(C)C(=O)O1 (stereo not shown) | parasite growth, ELISA | DD2 | drug-resistant strain, blood stage | 328 nM |
| COc1cc2c3cc1Oc1cc(ccc1O)CC1c4c(cc(OC)c(O)c4Oc4ccc(cc4)CC3N(C)CC2)CCN1C (stereo not shown) | parasite growth, stage-specific treatment |  | 12 h, early to late schizont stage | 5340 ± 330 nM |
| Oc1cccc2c1[nH]c1c(C3=CC4(O)CCC=CCCCCN5CCC3C3(CC6C=CCCCCN6C43)C5)nccc12 (single isomer, unassigned; (+)) |  | W2, chloroquine-resistant | 72 h | 0.022 ± 0.01 µg/mL |
| CCOC(=O)c1ccc2c(c1)C1CC(C)(N2)c2c(C)nc3ccc(C(=O)OCC)cc3c21 (single isomer, unassigned) | parasite growth, inhibitor, SYBR Green I | Cam3.1 R539T (MRA-1240) |  | 14400 nM |
| CC(=O)c1c(O)c(C)c(O)c2c1OC1=CC(=O)C(=C(C)NCCCC(=O)OC3OC4OC5(C)CCC6C(C)CCC(C3C)C46OO5)C(=O)C12C (stereo not shown) | parasite growth, 3H-hypoxanthine incorporation | K1 | asexual erythrocytic stages | 0.001 µg/mL |
| CC1CCC(C(C)(C)C(=O)Nc2ccc(Oc3ccccc3)cc2)CC1 (stereo not shown) | parasite growth, SYBR Green | W2 | blood stage | 67 nM |
| CCCCCc1ccc(Cc2cc(/C=C/C(=O)OC)cc3cccnc23)cc1 | parasite growth, inhibitor, SYBR Green I | Cam3.1 R539T (MRA-1240) |  | 10600 nM |
